# Published values of several laboratories.
# Parts stem from different laboratories: compare values within a part only. Positions count from the first letter of the parent shown.

# Series 1
# Target: Sal-like protein 4, full length isoform A (SALL4, Homo sapiens, UniProt Q9UJQ4, residues 1-1053)
# Sequence of UniProt Q9UJQ4 (whole entry, looked up): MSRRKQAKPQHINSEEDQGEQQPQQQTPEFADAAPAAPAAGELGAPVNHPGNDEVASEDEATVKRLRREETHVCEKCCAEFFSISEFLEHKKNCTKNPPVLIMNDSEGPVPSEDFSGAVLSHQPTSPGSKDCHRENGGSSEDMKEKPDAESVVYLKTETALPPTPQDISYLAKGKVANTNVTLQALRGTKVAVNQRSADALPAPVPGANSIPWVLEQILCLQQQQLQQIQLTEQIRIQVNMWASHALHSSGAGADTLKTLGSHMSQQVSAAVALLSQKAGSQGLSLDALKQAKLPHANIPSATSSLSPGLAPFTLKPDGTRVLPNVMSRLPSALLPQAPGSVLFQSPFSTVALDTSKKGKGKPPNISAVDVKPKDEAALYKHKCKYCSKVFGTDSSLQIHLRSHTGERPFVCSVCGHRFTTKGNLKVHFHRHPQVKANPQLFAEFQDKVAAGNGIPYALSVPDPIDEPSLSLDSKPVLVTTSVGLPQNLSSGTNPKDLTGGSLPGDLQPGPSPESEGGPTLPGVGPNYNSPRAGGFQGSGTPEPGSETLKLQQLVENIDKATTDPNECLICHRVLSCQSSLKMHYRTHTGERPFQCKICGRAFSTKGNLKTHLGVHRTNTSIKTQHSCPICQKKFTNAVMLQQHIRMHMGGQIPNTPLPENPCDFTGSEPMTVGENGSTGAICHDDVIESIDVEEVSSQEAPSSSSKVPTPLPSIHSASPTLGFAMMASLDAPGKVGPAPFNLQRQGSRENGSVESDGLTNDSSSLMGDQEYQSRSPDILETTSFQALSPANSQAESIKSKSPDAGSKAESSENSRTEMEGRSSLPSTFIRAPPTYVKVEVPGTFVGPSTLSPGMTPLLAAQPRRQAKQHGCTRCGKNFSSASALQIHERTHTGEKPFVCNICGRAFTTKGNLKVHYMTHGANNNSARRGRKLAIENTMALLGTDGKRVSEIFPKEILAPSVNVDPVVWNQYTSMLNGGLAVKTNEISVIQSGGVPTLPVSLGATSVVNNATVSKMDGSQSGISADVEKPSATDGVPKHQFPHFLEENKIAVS
# Method: universal PBM
# Form: double-stranded DNA, one strand shown
# Matrix: in vitro
# Concentration: 600 nM
# Setting: 8-mer, flanks averaged, mean of replicates
# Direction: higher = stronger binding
Strand,E-score
AACGGTAC,-0.0541
CCAGATTA,0.221
AGCGATTG,-0.0543
CCCCGCCC,0.0199
CACAATTA,0.239
CGGCACAA,-0.147
CATATTTC,0.373
CGCCGGCA,-0.246
CATAAACG,0.284
AAATTCAT,0.34
AATCACCT,0.17
ATACAACG,0.144
GTATCGTA,0.205
TCAGTCAA,0.0821
CAGCGCGC,-0.323
ACGGACAC,-0.178
CGGTGAGA,-0.168
AGGAAACT,-0.0261
AAGGGACC,-0.196
TAGGCGCA,-0.168
AGGGATCA,-0.0402
CGGTGTAC,-0.147
CTAACCGA,-0.162
AAGAATGA,0.243
AAGCCACC,-0.127

# Series 2
# Target: ABI1, truncated, D143A, DHFR fusion (Arabidopsis thaliana)
# Method: DHFR PCA, deep sequencing
# Matrix: yeast
# Setting: methotrexate growth selection, single substitutions
# Together with: (+)-ABA 0.11 µM
# Relative to: wild-type fitted maximum
# Direction: higher = stronger binding
# Starting sequence: PYL1, truncated, DHFR fusion (Arabidopsis thaliana); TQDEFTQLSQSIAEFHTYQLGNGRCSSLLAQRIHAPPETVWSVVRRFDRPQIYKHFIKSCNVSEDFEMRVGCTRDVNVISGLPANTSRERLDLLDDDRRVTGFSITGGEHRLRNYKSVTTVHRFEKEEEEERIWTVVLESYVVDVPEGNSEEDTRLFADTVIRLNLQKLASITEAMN; partner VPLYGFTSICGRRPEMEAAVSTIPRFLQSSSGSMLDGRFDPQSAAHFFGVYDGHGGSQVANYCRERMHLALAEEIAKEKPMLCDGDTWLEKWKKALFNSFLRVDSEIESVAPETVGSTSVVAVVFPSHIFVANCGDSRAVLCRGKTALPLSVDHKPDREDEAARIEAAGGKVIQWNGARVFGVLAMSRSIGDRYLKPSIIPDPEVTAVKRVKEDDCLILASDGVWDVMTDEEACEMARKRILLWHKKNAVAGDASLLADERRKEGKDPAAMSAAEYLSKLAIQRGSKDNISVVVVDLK
Change,relative binding score
K116Y,-5.12%
L20H,47%
L138I,1.75%
P37S,0.697%
Q19D,50.2%
T120W,-6.18%
A35M,-2.66%
F124I,63.2%
K58I,-2.65%
D92L,-0.245%
L82K,3.56%
D65H,20%
N77G,18.7%
D95E,-1.57%
S117D,-3.63%
P50Q,-10.3%
A13Y,0.775%
S63R,24.8%
E125D,20.8%
D144V,-4.08%
E128H,61.4%

# Series 3
# Target: Histone acetyltransferase KAT6A, both winged helices, GST fusion (KAT6A, Homo sapiens, UniProt Q92794, residues 1-181)
# Method: protein binding microarray
# Form: double-stranded DNA, one strand shown
# Matrix: in vitro
# Concentration: not given
# Setting: 8-mer, flanks averaged, mean of 2 arrays, mostly near background
# Relative to: not given
# Direction: higher = stronger binding
# Residues (chain): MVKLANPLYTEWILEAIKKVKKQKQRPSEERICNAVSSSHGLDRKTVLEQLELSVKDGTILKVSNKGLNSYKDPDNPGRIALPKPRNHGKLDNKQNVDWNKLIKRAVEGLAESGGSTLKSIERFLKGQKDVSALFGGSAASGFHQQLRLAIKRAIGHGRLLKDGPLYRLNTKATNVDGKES
Strand,E-score
ACCTCAAT,-0.181
CTAGCGAA,-0.082
ACAAGCGC,0.313
AATGGCAG,-0.167
CGCTCCAA,0.0694
GGTAGCCA,-0.0486
ATCGCAGA,-0.11
AGGAGTAA,-0.174
TATGTTAA,-0.0277
CAGAAGGC,-0.0758
CGGGCCCC,0.211
CCTCCCCC,-0.0903
AGCTATAA,-0.208
ATCTTCAT,-0.0413
ATAAAGCG,0.176
TCGACCCA,-0.202
GTGTGATA,0.0414
GACTAACA,0.0777
ATAATGGA,-0.127
AATACACA,-0.0162
AATCGATC,-0.11
AAATGCTC,-0.0859
AAATTATC,0.0172
AGTCCGAC,0.1
CCCATGGA,-0.261

# Series 4
# Target: Interferon regulatory factor 5, full length, phosphomimetic (IRF5, Homo sapiens, UniProt Q13568-2, residues 1-514, K96S/S451D/S453D/S456D/S462D)
# Method: protein-binding microarray
# Form: double-stranded DNA, one strand shown
# Matrix: in vitro
# Concentration: 250 nM
# Setting: 60-bp whole probe
# Together with: salmon DNA 0.4 mg/ml
# Relative to: random background probes
# Direction: higher = stronger binding
# All sequences stand within: GCCTAGCAC … GTCTTGATTCGCTTGACGCTGCTG
Strand,log fluorescence
GACGAACTGGGGACTGGAGCCGTGCTA,-0.726 z-score
GCTGTTCTCAGACTGGGTGCGTGCTAG,-0.295 z-score
GACGATATCAGTATCGTGACGTGCTAG,1.86 z-score
TCAGGACTGGGGACTGGGTTAGTGCTA,-0.539 z-score
TTAGGGATCGGTATCGGTTAGTGCTAG,5.24 z-score
CGAGTTTTCTCTCCCATTCTGTGCTAG,1 z-score
GACGGTGCCCTTTTCCTGACGTGCTAG,-0.22 z-score
GACGATATCAGTTTCGAGCCGTGCTAG,5.69 z-score
TTAGATCTCAGTCTCGATTGGTGCTAG,0.609 z-score
TTTTCTCTCCCATTCTGAATGTGCTAG,1.61 z-score
TCATAGATGCCTTTCTCACTGTGCTAG,0.202 z-score
TTACGTCTCGGTTTCGGTTAGTGCTAG,9.11 z-score
TTAGAAATCGGGTATCGATTAGTGCTA,4.74 z-score
TCATTCCTCTTTCTCTGACTGTGCTAG,1.65 z-score
GACGGTATCGACACTAGGGACGTGCTA,1.57 z-score
TTAGGACTGGGGTTTCGTTTAGTGCTA,2.34 z-score
GACGGTTTCGGGTCCGGGACGTGCTAG,6.47 z-score
TCAAATGATTGGTTGAAACTGTGCTAG,0.468 z-score
TTAGGGTTCCTTTCCCTTTAGTGCTAG,0.751 z-score
GACGGTTTCGACTATCGGGCCGTGCTA,6.86 z-score
TTAGGACTGCTTCTCTTTTAGTGCTAG,0.0397 z-score
TCACCTCTACCTCCTGGGACTGTGCTA,-0.14 z-score
CACAGGCTGCACAGAATGTAGTGCTAG,-0.259 z-score
TCAACTTTGACTTAAGAACTGTGCTAG,0.0138 z-score
TTATGTATCGGTTTCGGTTAGTGCTAG,11.5 z-score

# Series 5
# Target: CCNE2, cyclin fold, Cln2 fusion (human)
# Method: yeast growth competition, sequencing
# Matrix: yeast
# Setting: weak parent motif
# Relative to: not given
# Direction: higher = stronger binding
# Starting sequence: FOXM1 docking peptide (human); PHLARPIKVESPP; partner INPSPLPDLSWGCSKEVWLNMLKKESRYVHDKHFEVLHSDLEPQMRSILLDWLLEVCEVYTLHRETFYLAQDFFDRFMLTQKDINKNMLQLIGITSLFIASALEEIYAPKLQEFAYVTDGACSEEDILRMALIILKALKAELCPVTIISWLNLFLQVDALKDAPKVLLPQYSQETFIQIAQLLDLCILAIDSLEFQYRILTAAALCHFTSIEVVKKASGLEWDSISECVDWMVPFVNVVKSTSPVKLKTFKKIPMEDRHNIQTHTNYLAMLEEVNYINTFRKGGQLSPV
Change,normalised enrichment score
PHLARPIKVESPA [P13A],-0.561
PHAARPIKVESPP [L3A],0.277
AHLARPIKVESPP [P1A],-0.484
PHLARPAKVESPP [I7A],-0.482
PHLARAIKVESPP [P6A],-0.447
PALARPIKVESPP [H2A],-0.426

# Series 6
# Target: Hepatocyte nuclear factor 3-alpha (Foxa1, Mus musculus, UniProt P35582, residues 1-468, full length assumed)
# Method: EMSA with sequencing
# Form: double-stranded DNA, one strand shown
# Matrix: in vitro
# Concentration: 10 and 20 nM
# Setting: whole designed probe, mean of two concentrations, ends assumed
# Relative to: negative control set to 0
# Direction: higher = stronger binding
# All sequences stand within: GTGAGCGGTGCCCATTGATGGGGAAC … TTTCACTGGGATCGTGGGGAC
# Residues (chain): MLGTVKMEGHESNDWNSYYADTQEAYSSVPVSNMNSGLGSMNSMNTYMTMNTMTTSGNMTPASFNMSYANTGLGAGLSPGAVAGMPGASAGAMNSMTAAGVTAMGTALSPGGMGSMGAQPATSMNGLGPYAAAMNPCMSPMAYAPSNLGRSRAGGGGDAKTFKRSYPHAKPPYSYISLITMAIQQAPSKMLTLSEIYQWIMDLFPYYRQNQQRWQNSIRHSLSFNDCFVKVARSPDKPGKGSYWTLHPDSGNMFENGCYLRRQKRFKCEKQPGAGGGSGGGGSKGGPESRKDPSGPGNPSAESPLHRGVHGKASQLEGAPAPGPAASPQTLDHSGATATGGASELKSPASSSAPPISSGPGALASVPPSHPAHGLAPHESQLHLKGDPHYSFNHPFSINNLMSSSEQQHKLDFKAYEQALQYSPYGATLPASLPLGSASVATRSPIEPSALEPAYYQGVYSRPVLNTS
Strand,normalised bound fraction
AAATCTAAGAATATTTTGTTTCAGGCTAGAAAGATATCTCTTTACTTGACTTTTTTCAGACCATGTTGGCCATTGTCTAATTATTTAGTACAAAGTAATCTGAAATAGAGCAGAGTAGAGCTCATTCTCCCCAAGTTGAAGCTTATCACACTCCAATGTGTGCCCTCTTAAAGCATAAAGCATGTCTCACTTT,-0.0252 ratio
TTAATCAAATCAGCTCAATCCATACGTGCACTTCTTAAAATATATGAATTGATCCTACGTGTTGTAAGCAAACACAGACACATCCAGCTCCTTATTTACTTAGCCCTGATTTAAATAATGATGTGCTTTTTTGCTGACATCTTCTCACAATTCAGCTTTGTTTTTTTTCTTTTGTCCAAGAAATGTCTCTAGA,0.473 ratio
GGCTGCTTCTCCCTTTTGGCTGTTGTGCATATTGCTGCTATGAACATGGGTGTGCAAATACCTCTTTGAGTCACTGCTTTCACTTCTTTTTAGTATTTACTCAGCAGTGGAATTCCAGAGTCATGTGATAATTCTGTGTTTAATTTTTTTTGAGGAAACTCCATACTGTTCTCATGGTGGCTGCACCATTTAA,0.359 ratio
TGATGATACGTTATAGCATTTCTCTGCTCTGTAAGAGAGGCACCAGGGTCGTGTGCTGGCACATCCGGTGTCTGGGGTTTGTCCATTCGCTGCTGTTGACTCTGGTGTCGGCCGCTGGTGAGCTGGCTGTAGCTGGTCACCTCTGGGTGGTTTCTGGGGCGGTCGCAGGCTGACTAACACACCAAAGGTCAGC,0.0105 ratio
TGGCTGGCATCAAGGACTTTGGCTCTGGGGGTGTTCCCAGTCAACAGTTAACTAAAGACCAGGCCACTGTGCCTAGACTGTTTGTGCATTTGTGCAAACAATATGGGTTCATGCTGAAGTCCTGCGTTCCTTCTGAGAGTCTGAAAAGTTTAGAACATGCCAGGCAGAGGGTGTGTACCTGACCAACCCCCAA,0.347 ratio
AGTCATAAAAGCAAAATAATACTGCCAACAAAGAAAATTTTACCTGGAAAAATTTACCTCTAGAATAAGGATAAAAAATAAAGACTTTATAAGGTAAACAAAAGCTGTCAGTCTTTGTCACCATGTGTATAGTTCTATAAGAAATGGTAAAGTAAATATATACACAGATCTACAATTCTCTACTATAATAATA,0.556 ratio
TGGCCTTCTGGCCCTATCTGCTCCGTGCCCAACCCAGCGCCCCGCACAGTCGGAGCTTTGTAAATACGAGGTGACTGTCTGCCTACAAACTTTGTAAACATCACTTGAAAACGCCGCAGGGTATTGTGACATGGCCATACCACTATTTGTTTGCTATTGAATTTGTACTTCCCTGCCTTACTTTTGCTATTGC,0.383 ratio
TTTCCAGCCCTTAGTTTCTGGCATTTAACCTGACTCTGGTCCCTGAATGGCATGGGAGTGCTTTCAACCACAGGTTTCCACATTCATGCCACTTGTTTGCTTTTTGATCTACAGAGCTGACTCATTCATCTTTATTTGCTTTGTGTTTCCAATGGAGAAAGAGCTTGGGAAGGGAGGATCCTAATTGTCTAAA,0.519 ratio

# Repeated from above (series 2):
Change,relative binding score
L20H,47%
L138I,1.75%
P37S,0.697%
Q19D,50.2%
T120W,-6.18%
A35M,-2.66%
